Assay results from different studies.
Each line is one published result; not all experiments were run side by side. Several values in a cell are separate wells, animals, samples, runs or records. ± marks the error that the study gave.

| Structure (SMILES) | organism | test | system | setting | scale | measurement | value |
| --- | --- | --- | --- | --- | --- | --- | --- |
| Cc1cc(Cl)cc(S(C)(=O)=NC#N)c1NC(=O)c1cc(Br)nn1-c1ncccc1Cl (centres unmarked) | Spodoptera litura | leaf-dip | third instar larvae | 50 ppm, 24 h |  | mortality | 0% |
| COC(=O)C1=CO[C@@H](C)[C@@H]2Cn3ccc4c5ccccc5nc-4c3C[C@H]12 | Plasmodium falciparum | growth, [3H]-hypoxanthine uptake | FCR3 | 72 h |  | IC50 | 231 ± 79 nM |
| [O-][N+]1=C(c2ccc(Cl)cc2)C2=NCCCCN2c2ccccc21 | Clostridioides difficile | microbial growth |  |  |  | MIC90 | 4 µg/mL |
| CC[C@H](C)[C@H](NC(=O)[C@H](CCCCN)NC(=O)[C@H](CCCCN)NC(=O)[C@H](Cc1ccccc1)NC(=O)[C@H](Cc1ccccc1)NC(=O)[C@H](CCCCN)NC(=O)[C@H](CCCCN)NC(=O)[C@H](Cc1ccccc1)NC(=O)[C@H](CCCNC(=N)N)NC(=O)[C@@H](N)CCCCN)C(=O)N[C@@H](CCCCN)C(=O)N[C@@H](CCCCN)C(=O)N[C@@H](CO)C(=O)N[C@H](C(=O)N[C@@H](CCCCN)C(=O)N[C@@H](CCCCN)C(=O)N[C@@H](CCCNC(=N)N)C(=O)N[C@H](C(=O)N[C@@H](CCCCN)C(=O)N[C@@H](CCCCN)C(=O)N[C@@H](CC(C)C)C(=O)N[C@@H](Cc1ccccc1)C(=O)N[C@@H](CCCCN)C(=O)N[C@@H](CCCCN)C(=O)N1CCC[C@H]1C(=O)N[C@@H](CCCNC(=N)N)C(=O)N[C@H](C(=O)N[C@H](C(=O)N1CCC[C@H]1C(=O)N[C@H](C(=O)N[C@@H](CO)C(=O)N[C@H](C(=O)N1CCC[C@H]1C(=O)N[C@@H](Cc1ccccc1)C(=O)O)[C@@H](C)CC)[C@@H](C)CC)[C@@H](C)CC)C(C)C)C(C)C)C(C)C | Pseudomonas aeruginosa |  | P2 clinical isolate | 20 h |  | MBC | 16 µg/mL |
| FC(F)(F)c1cccc(CNc2nc(NC3CCN(Cc4ccccc4)CC3)c3nc[nH]c3n2)c1 | Cryptococcus neoformans | RNA-seq, refers to: KCS1 (CNAG_02897) |  | 48 µg/mL, 3 h | baseline: untreated | mRNA fold change | 1.05 |
| CN(C)c1nc(NCc2ccccc2F)c(/N=N/c2ccc(Cl)cc2)c(N(C)C)n1 | Ostrinia furnacalis | leaf dipping |  | 50 mg/L, 96 h |  | mortality | 70.7 ± 5.8% |
| Cc1cc(C(=O)Nc2nc3cccc(C)c3n2[C@H]2CCCCN(C(=O)/C=C/CN(C)C)C2)ccn1 | Trypanosoma brucei brucei |  | 2T1 CLK1 overexpressing | 0.0781 µM, compound pretreated | baseline: maximum | survival | 206% and 201% and 189% and 209% |
| CC(C)[C@H]1NC(=O)[C@H](Cc2ccccc2)NC(=O)[C@@H](C(C)C)NC(=O)[C@@H](C)NC(=O)[C@H](CO)NC(=O)[C@@H](Cc2c(-c3ccc4c5ccccc5c5ccccc5c4c3)[nH]c3ccccc23)NC(=O)[C@@H](CO)NC1=O | Mycobacterium marinum |  |  |  |  | MIC90 | > 100 µM |
| CC(C)C[C@H](NC(=O)[C@H](CCN)NC(=O)[C@H](CCN)NC(=O)[C@@H](Cc1ccccc1)NC(=O)[C@H](CC(C)C)NC(=O)[C@H](CCN)NC(=O)[C@H](CCN)NC(=O)[C@@H](CCN)NC(=O)CCSCCOC(=O)C(C)(C)C)C(N)=O | Acinetobacter calcoaceticus | BHI agar spot plating |  | 24 h, 37 °C |  | MBC | 128 µM |
| CCOC(=O)C1(C)Oc2cc(F)ccc2N(C)C1=O (centres unmarked) | Setaria viridis | fresh weight, greenhouse postemergence |  | postemergence, 150 g ai/ha, 21 days |  | inhibition | 44.6 ± 1.58% |
| CC(O)CN(CC(C)O)CC(C)O.O=C(O)C(Cl)Cl (centres unmarked) | Solanum nigrum | herbicidal activity |  | 15 mg/mL, 21 days, pre-emergence greenhouse |  | inhibition | 0% |

Some of these lines once more:
| Structure (SMILES) | organism | test | system | setting | scale | measurement | value |
| --- | --- | --- | --- | --- | --- | --- | --- |
| CN(C)c1nc(NCc2ccccc2F)c(/N=N/c2ccc(Cl)cc2)c(N(C)C)n1 | Ostrinia furnacalis | leaf dipping |  | 50 mg/L, 96 h |  | mortality | 70.7 ± 5.8% |
